{"data": "Assay results of several laboratories", "note": "Each line is one published result; not all experiments were run side by side. Numbers after ± are the reported error."}
{"Structure (SMILES)": "CCCC[C@H](NC(=O)CNC(=O)CNC(=O)CN1CCN(CC(=O)O)CCN(CC(=O)O)CCN(CC(=O)O)CC1)C(=O)N[C@H]1CC(=O)NCCCC[C@@H](C(N)=O)NC(=O)[C@H](Cc2c[nH]c3ccccc23)NC(=O)[C@H](CCCNC(=N)N)NC(=O)[C@@H](Cc2ccccc2)NC(=O)[C@H](Cc2c[nH]cn2)NC1=O [gallium-67 labelled]", "test system": "mouse C57, B16/F1 melanoma, urine", "conditions": "2 h", "quantity": "urinary excretion", "value": "84.9 % injected dose"}
{"Structure (SMILES)": "CC1(C)C(/C=C/C2=C(Cl)C(=C/C=C3/N(CCCCCC(=O)O)c4ccccc4C3(C)C)/C[N+](C)(C)C2)=[N+](CCCCCC(=O)O)c2ccccc21", "test system": "CD-1 mouse, male", "conditions": "intravenous, 25 nmol, 4 h", "scale": "reference: injected dose", "quantity": "urinary excretion", "value": "32%"}
{"Structure (SMILES)": "CCCC[C@H](NC(=O)[C@H](CCC(=O)O)NC(=O)CNC(=O)CN1CCN(CC(=O)O)CCN(CC(=O)O)CCN(CC(=O)O)CC1)C(=O)N[C@H]1CC(=O)NCCCC[C@@H](C(N)=O)NC(=O)[C@H](Cc2c[nH]c3ccccc23)NC(=O)[C@H](CCCNC(=N)N)NC(=O)[C@@H](Cc2ccccc2)NC(=O)[C@H](Cc2c[nH]cn2)NC1=O [indium-111 labelled]", "test system": "C57 mouse, female, B16/F1 melanoma, urine", "conditions": "intravenous, 0.037 MBq, 24 h", "quantity": "urinary excretion", "value": "93.57 ± 0.12%"}
{"Structure (SMILES)": "CCOc1ccc(Cc2cc([C@@H]3O[C@H](CO)[C@@H](O)[C@H](O[C@@H]4O[C@H](C(=O)O)[C@@H](O)[C@H](O)[C@H]4O)[C@H]3O)ccc2Cl)cc1", "test system": "mouse and rat, urine", "scale": "reference: rodent over human", "quantity": "urinary concentration ratio", "value": "1 to 15"}
{"Structure (SMILES)": "CCCC[C@H](NC(=O)CNC(=O)CNC(=O)CN1CCN(CC(=O)O)CCN(CC(=O)O)CC1)C(=O)N[C@H]1CC(=O)NCCCC[C@@H](C(N)=O)NC(=O)[C@H](Cc2c[nH]c3ccccc23)NC(=O)[C@H](CCCNC(=N)N)NC(=O)[C@@H](Cc2ccccc2)NC(=O)[C@H](Cc2c[nH]cn2)NC1=O [copper-64 labelled]", "test system": "C57 mouse female B16/F1 melanoma, urine", "conditions": "intravenous, 0.037 MBq, 4 h", "quantity": "urinary excretion", "value": "91.5 ± 1.66%"}
{"Structure (SMILES)": "CCCC[C@H](NC(=O)CNC(=O)CNC(=O)CN1CCN(CC(=O)O)CCN(CC(=O)O)CCN(CC(=O)O)CC1)C(=O)N[C@H]1CC(=O)NCCCC[C@@H](C(N)=O)NC(=O)[C@H](Cc2c[nH]c3ccccc23)NC(=O)[C@H](CCCNC(=N)N)NC(=O)[C@@H](Cc2ccccc2)NC(=O)[C@H](Cc2c[nH]cn2)NC1=O [indium-111 labelled]", "test system": "C57 mouse, female, B16/F1 melanoma, urine", "conditions": "intravenous, 0.037 MBq, 0.5 h", "quantity": "urinary excretion", "value": "60.8 ± 4.05%"}
{"Structure (SMILES)": "CC1(C)C(=CC=C2C[N+](C)(C)CC(C=CC3=[N+](CCCCCC(=O)O)c4ccccc4C3(C)C)=C2Cl)N(CCCCCC(=O)O)c2ccccc21", "test system": "CD-1 mouse", "conditions": "intravenous, 25 nmol", "scale": "reference: dose", "quantity": "urinary excretion", "value": "32%"}
{"Structure (SMILES)": "CCCC[C@H](NC(=O)CNC(=O)CNC(=O)CN1CCN(CC(=O)O)CCN(CC(=O)O)CCN(CC(=O)O)CC1)C(=O)N[C@H]1CC(=O)NCCCC[C@@H](C(N)=O)NC(=O)[C@H](Cc2c[nH]c3ccccc23)NC(=O)[C@H](CCCNC(=N)N)NC(=O)[C@@H](Cc2ccccc2)NC(=O)[C@H](Cc2c[nH]cn2)NC1=O [copper-64 labelled]", "test system": "C57 mouse female B16/F1 melanoma, urine", "conditions": "intravenous, 0.037 MBq, 2 h", "quantity": "urinary excretion", "value": "62.7 ± 3.56%"}
{"note": "Repeated from above:"}
{"Structure (SMILES)": "CC1(C)C(/C=C/C2=C(Cl)C(=C/C=C3/N(CCCCCC(=O)O)c4ccccc4C3(C)C)/C[N+](C)(C)C2)=[N+](CCCCCC(=O)O)c2ccccc21", "test system": "CD-1 mouse, male", "conditions": "intravenous, 25 nmol, 4 h", "scale": "reference: injected dose", "quantity": "urinary excretion", "value": "32%"}
